# Results pooled from the literature.
# Each numbered part is a random draw from the data of one study; scales do not carry over between parts.

# Study 1
# Target: RING finger protein unkempt homolog, zinc fingers 1-6, GST-SBP tag (UNK, Homo sapiens, UniProt Q9C0B0, residues 30-357)
# Sequence of UniProt Q9C0B0 (30-357, looked up): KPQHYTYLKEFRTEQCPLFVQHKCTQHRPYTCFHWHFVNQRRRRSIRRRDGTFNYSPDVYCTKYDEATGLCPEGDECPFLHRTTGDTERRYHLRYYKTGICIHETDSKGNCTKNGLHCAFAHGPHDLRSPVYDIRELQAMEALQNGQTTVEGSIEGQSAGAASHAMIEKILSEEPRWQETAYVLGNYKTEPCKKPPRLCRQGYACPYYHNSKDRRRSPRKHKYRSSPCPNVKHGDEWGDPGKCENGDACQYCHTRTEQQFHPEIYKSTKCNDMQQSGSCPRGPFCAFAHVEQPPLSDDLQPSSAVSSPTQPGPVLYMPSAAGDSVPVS
# Technique: RNA Bind-n-Seq
# Molecule type: RNA
# Medium: in vitro
# Concentration: not given
# Setting: RNA with constant flanks, human and mouse sites, ends assumed
# Relative to: input RNA pool
# Direction: higher = stronger binding
# Shared flanks, not repeated: GGGAGUUCUACAGUCCGACGAUC … CAACAGAGGAUUGAGCAUCA
Strand,bound/input enrichment
CCCUACCCCUCCCCUUUUCUUAUUAUUCAGAAUAUAAACCUGCAAAGCUCUGCUCUGUUUUGGUUUUGAAAGUUUAAGCUUUUCUGCUUCUGUGAGAGCACAGGCUUCUGUCCCUUUUGA,0.891 ratio
CCAACAACAAAAAUUCAAAUCAGGUUAGCAGAUGGGAGUCGUUUGAUACAAAGAUUCAAUAGUACACACAGGAUCCUGGAUGUCCGGAACUUUAUUGUACAGUCUCGUCCUGAAUUUGCG,0.254 ratio
AAUGCAUCUCUUCAAGACCAUAUUUACCCGAGCUGUUUUGGGAACACUCCAGACUGGAAUAGUUCUAAAUUUAUAAGUCUUUGGGAAUCAGAAAUGAUGAAUGAUAAGAACUGGAACCCU,0.151 ratio
AAACAAGCCUUUGAAAGAUGUCAUAGGCUUUCUGAUCCUUCUGAUUUACCAAGGAAUGCCUUUAGAAUUUUUACCAUUCUUGUGGAAUUUUUAUGUAUUGAGCAUAUUGAUUAUGCUUUA,4.28 ratio
CUCGUGCACUCCAGGGCAAGUGCUCUACUCACUAAACACUUUUCUGUUGAAUGAGAUUUUUCUUACCCUUUAAGGUGCUGUCUCCUAAAAUAAAAACCUCGAGACUGUCCCUACUUGUUG,0.174 ratio
GUUGUACCUAAAGGAAAAGGAGAACAGAUUGCAAGGGAGCAUGGUAUUAGGUUUUUUGAGACUAGUGCAAAAGCAAAUAUAAACAUCGAAAAGGCGUUCCUCACGUUAGCUGAAGAUAUC,1.88 ratio
GCUACUUUUGUUUUAGAGAAUUUCAGCACUUUGCGUCAGAGAGCAGAUCCUGUUUACAGUCCACCUCUUCAAGUUUCAGGACUUUGCUGGAGGUUAAAAGUUUACCCAGAUGGAAAUGGA,0.351 ratio
AGCAGCAUGGGGAGGACACGAGGAUAUUGUACUGAAUUUGCUACAACAUGGCGCUGAAGUGAACAAAGCUGAUAAUGAAGGUAGAACUGCUUUGAUAGCAGCAGCAUACAUGGGACAUAG,0.768 ratio
ACAUCCUUGGCGUGGCACCCAACUCACCCCAGCACUGUGGCUGUGGGUUCCAAAGGGGGAGAUAUCAUGCUCUGGAAUUUUGGCAUCAAGGACAAACCCACCUUCAUCAAAGGGAUUGGA,0.127 ratio
AGCAGCACGAUCUCUGGGGGUUAUGCAGAGUAUGCUCUUGCAGCAGACCACACUGUUUACAAACUACCUGAAAAACUGGACUUUAAACAAGGAGCUGCCAUCGGCAUUCCAUAUUUUACU,0.152 ratio
AGCAGACCAAAAAUUCUGAUGACCGCAUCUAGAUUAUUUUUUUAUAAAAAUGAUUUUCACUAUAGCUAUGUUACGCUAAGCUACUGUCCAAUCUCUUGUGAUGUGUAACUUUUACAUGUG,2.39 ratio

# Study 2
# Target: Histone acetyltransferase KAT6A, winged helix 2, GST fusion (KAT6A, Homo sapiens, UniProt Q92794, residues 85-181)
# Technique: protein binding microarray
# Molecule type: double-stranded DNA, one strand shown
# Medium: in vitro
# Concentration: not given
# Setting: 8-mer, flanks averaged, mean of 2 arrays, mostly near background
# Relative to: not given
# Direction: higher = stronger binding
# Construct (chain): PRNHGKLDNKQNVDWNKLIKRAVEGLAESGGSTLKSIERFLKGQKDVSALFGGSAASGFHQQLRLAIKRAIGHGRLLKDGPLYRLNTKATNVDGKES
Strand,E-score
CAAGTTAC,-0.0172
CGGTCAAC,0.141
ATAGATAC,-0.149
GGTATACA,0.0134
CCGCTTTA,0.121
CGGGGAAA,0.044
ATGTCTTA,-0.177
AAAGCGCC,0.0261
CGTGAGAG,-0.0593
CGCCAGGA,0.173
AATACTGT,0.11
GCGTGGAA,-0.103
ACTGCTAG,-0.0545
CAGCTTGC,0.092
CTCCCACA,0.0192
GCGGGTCC,0.0988
AGTCTTCC,-0.0602
GTTCGAGA,0.0095
AAGGTACT,-0.0678
GATGTTTA,-0.0803
TGCCTTAA,-0.0345
GAGTTCCA,-0.067
CTTGAACC,0.0423
GGGGCACA,0.12
ACTCAACC,0.0421

# Study 3
# Target: RNA binding protein fox-1 homolog 2, RRM domain, GST-SBP tag (RBFOX2, Homo sapiens, UniProt O43251-10, residues 100-194)
# Technique: RNA Bind-n-Seq
# Molecule type: RNA
# Medium: in vitro
# Concentration: 365 nM
# Setting: natural RNA segment, single round, ends assumed
# Relative to: no-protein control
# Direction: higher = stronger binding
# Shared flanks, not repeated: GGGAGUUCUACAGUCCGACGAUC … UGGAAUUCUCGGGUGCCAA
# Construct (chain): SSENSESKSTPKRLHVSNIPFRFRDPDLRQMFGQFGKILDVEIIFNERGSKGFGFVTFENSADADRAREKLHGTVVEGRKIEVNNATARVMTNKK
Strand,RBNS enrichment (R)
AGUGAAGAAGUUUUUUUUAAUUUUUGGAUGGGAUAUUCGCAAAUAUCUGUAUUAUACACUAAGCUAUUACAAUGGUACUUAAAAUAAUGUAAAUUUGAAGUCAUUGUUAU,0.974
GUCUGGGGGAAAUCACCGGGGUUCAGGGGAGGGGAUUUCCCCGUGAAAUAAACUCAUCAUGGACACUGCCAUAGCUUUUUAAGAAUUGUUACUUUGUGUGUUCAAAAUAC,0.976
UUUUUUAGGGCGUGUGCCCUGUUACACUUAUAGGGCCUAGGAUGCUUGUGUUGAGUAAAAAGGAGAUGCCCCAAUAUUCAAAGCUGCUAAAUGUUCUCUUUGCCAUAAAG,0.457
CCCUGCACUCCGCCUUAGUCCUGGGGCCGGCGACACAGUGGGGGCUCCUCACUUGCUGCAGUGUCAUAGCAAUAAAAUGUGAUUCUUGGGGUCCCCCCAGGGAGCUGCCC,0.422
UGAAAAGGUGAAUACUCCAACUACCACAGUCUAUAGGUGUGGCCCUUUGAUAGAUCUCUGCCGGGGUCCUCAUGUUAGACACACGGGCAAAAUUAAGGCUUUAAAAAUAC,0.428
AAGGAGGACAACCAUCUAUAACUUGGUGUCAUUGACAACUAUAUUAAUGUUUAUCCAGCUGCCGUAGUUUGAAACAUUCUGGGCUGGGAGAAGAGGGACCCCGGGGUUUC,0.479
ACCCUCGAGACUCUGCAAAACAUAGUAGCUGCUGCUGCUUGUGUGGCGUGACCCUCUUGUGAAGUACUGGUUCUGUUUCCUGAUUCCUUUUGCACUCCUCCAUCCCACCU,0.221
UAUUAAAGGAGCAAAAACCCACUCUAUUGGUCCAUUAGUUCCAGCAAGAGAAGUUAGAGGAGAAUUAAUAUAUUUCGUGCAAAAGUACUACAAACUUAAGUGUAUGUGCU,0.36
UGAUUUAACAGUUUCUGUGUAUGUUAAACUUUCAAGUGUUUUUUUAAAUCAUAAUGUGUAAUAAUUGUGUAUCAUUUUGUCUACAAUAAAACGUUUAGUAUUUGCAAUGG,1.13
AGUUGAGAGACCAGGCAACCCACUGUUGAGAACCACUCUCAGUCAGCUGGUAGGGACAUUACACCAGGUACCCCGUGGCUAUCCCUACCCAGUGUCGGUGGCCCGGCACA,0.195
AGAACGUGAUUUCCAGUGAUCUCUGGAAGCGCUAAAGCUAAAAUUUCUGUUCUUGAAACACUUCAGCUUUGCAACUAAAAUAUUACAGAUUAAUAAUAAAUUAAACCAAC,0.564
UGUUCCCUCUUUCCUUCAAGUGCCUGUUGCAUAUUGAAAGGAAGGAGAAAUCCCAAAGCAGAUUCCUUUGAUCGGGUUUCUGUUGGAGAUGGGGCUUCCCUUAGGAGCCA,0.253

# Study 4
# Target: Hepatocyte nuclear factor 3-alpha (Foxa1, Mus musculus, UniProt P35582, residues 1-468, full length assumed)
# Technique: EMSA with sequencing
# Molecule type: double-stranded DNA, one strand shown
# Medium: in vitro
# Concentration: 10 and 20 nM
# Setting: whole designed probe, mean of two concentrations, ends assumed
# Relative to: negative control set to 0
# Direction: higher = stronger binding
# Shared flanks, not repeated: GTGAGCGGTGCCCATTGATGGGGAAC … TTTCACTGGGATCGTGGGGAC
# Construct (chain): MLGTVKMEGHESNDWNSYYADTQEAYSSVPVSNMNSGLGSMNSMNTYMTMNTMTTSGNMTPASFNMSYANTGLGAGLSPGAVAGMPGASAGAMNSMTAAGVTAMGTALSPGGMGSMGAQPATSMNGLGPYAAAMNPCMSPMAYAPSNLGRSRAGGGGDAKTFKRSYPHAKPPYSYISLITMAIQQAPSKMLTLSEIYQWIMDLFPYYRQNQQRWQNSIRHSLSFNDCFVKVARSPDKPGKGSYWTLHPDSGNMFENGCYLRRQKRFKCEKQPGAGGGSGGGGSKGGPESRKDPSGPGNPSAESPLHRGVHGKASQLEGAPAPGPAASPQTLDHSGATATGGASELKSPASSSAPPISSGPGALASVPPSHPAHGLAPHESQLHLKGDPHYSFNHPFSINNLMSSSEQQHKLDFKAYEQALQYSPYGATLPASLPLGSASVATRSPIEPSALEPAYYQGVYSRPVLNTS
Strand,normalised bound fraction [ratio]
ATGAAGGGCTGCCAGTGTAATTTGAACCTCAAATAAACAACAGATAAAACTGTAGTATAAGTATGTCATTGCACAACCCATATACGATCTTTTTGTTTGCCTAATCTGGCAAAGATATTGACTTAACACACACTAATCTGTTGACAGGTAGGTGAAATATTTGAACTTCTACGTTGCTTCTCTAATCCTGTCC,0.389
ATCTTCCCCCTCTTCCTTGCCCCACCAGCTCACCTTCCCGGGTATCTGCAAATAAGTATTTATTTTCAAGCCGGCATTCGTTAACCCTCTTCACGCGCATACTGCACATTGGTCTGGATGAATCATGGTCCTTTGGCGACGCCAGGCTCCGGGAGAGCAAAGCACCGTGTCAGGGCCATGATCCGGGGTGGCC,0.15
CTTTTTGGGGTGATGAAAATAATCTAAAATTGACTGTGGTGATTTCAGAGCTCTCAGTATGCTAAAAACCATGGACTTATCCCCTTAGAAAAAGTAAACAAAGAGTTATGAAAAAGAAAAAAAAAGACGTTTTAATTTCTATCACTGAGTGTGCACATGTTTTTAAAAAGTTTTTATTACTATAAACCAACCA,0.411
CATTAGAGTCAAAGTTGTTAAGGGGAGCTAGTCATAGCTACCACGTGGCCAGGCATGTGGAACCAGACACCAGGCACACATCATGTAACATCATATTTACTTTAAATAATGCATGAATCATCATTCATAGTGACACACTACTTGAGATATATAGAATAACATTATTACCCAGTAAGTATGTGAACATTCCGAT,0.293
GGTTAGAGGAAGTAAGGTAATGCAAGTGTTAAATTATGTGTGAAAGATGGGATGCCTGGAAGAAATTCATATCACAAATATTACAGAAAGATAAGTAAACAGGGATTTAATATTCATGGATTTTTCTCCTATTTTATTTAAAATGTCAGACCTGTCTTAATGAGGTTCTACTGACATTTATTCTTTTTTAATT,0.281
AGGTATTTTGCTGCCACACTGATAGTTCAGTGAATTGCACTTTTGGATCTTGGAGAATGGAGAGAAGCAGCTAGGCAAATAATTGGCAAGAAAAGTAATCTGTTACAGTGCAGCTTAGATTACCCACTCTGCCTATCTGCGTTTCTGAAATTGGATTCCTTGGCTCTGTGAACTAGTTAGCCTTCCTTTAGAG,0.0716
CAATAAAACATTAAAAGATGCTGTTTCCCTATTTATGAAAGTGCTTTAAGTTTCTTAGTGTTGTGAAGGGATTTTTTTTTTTTTCGGACAAAGTAAACAGGGTTCTCAAGATCCATTTCTAAAATTTTATTTCAAGGAGGAGATGAGAAATGTATGCTTAAAGAAACTGCTGGACACTATTAAAACTGGGATG,0.24
TCCACAGTAGAAACGAAGGAGATGACAGATACCCCGGCACCAAAACTGACACCAGGTTTTTGTTGCTTCTTCCACTATATAATGGAGAAGTTCTGTTTACTCTATACTGTTGTGCAACGTTAACATTGGCTTAAGGAAACCCAAGAAACTGAATCACATCAAAGGTATGTCAGAGGTATGTGAACCAGAGCAA,0.291

# Repeated from above (study 2):
Strand,E-score
ATAGATAC,-0.149
AATACTGT,0.11
AAAGCGCC,0.0261
GCGTGGAA,-0.103
GCGGGTCC,0.0988
ATGTCTTA,-0.177
GATGTTTA,-0.0803
